Literature values as cited in several papers.
Each numbered part shows a few of the values that one paper quotes.
Chain of UniProt P9WI81 (whole entry, looked up): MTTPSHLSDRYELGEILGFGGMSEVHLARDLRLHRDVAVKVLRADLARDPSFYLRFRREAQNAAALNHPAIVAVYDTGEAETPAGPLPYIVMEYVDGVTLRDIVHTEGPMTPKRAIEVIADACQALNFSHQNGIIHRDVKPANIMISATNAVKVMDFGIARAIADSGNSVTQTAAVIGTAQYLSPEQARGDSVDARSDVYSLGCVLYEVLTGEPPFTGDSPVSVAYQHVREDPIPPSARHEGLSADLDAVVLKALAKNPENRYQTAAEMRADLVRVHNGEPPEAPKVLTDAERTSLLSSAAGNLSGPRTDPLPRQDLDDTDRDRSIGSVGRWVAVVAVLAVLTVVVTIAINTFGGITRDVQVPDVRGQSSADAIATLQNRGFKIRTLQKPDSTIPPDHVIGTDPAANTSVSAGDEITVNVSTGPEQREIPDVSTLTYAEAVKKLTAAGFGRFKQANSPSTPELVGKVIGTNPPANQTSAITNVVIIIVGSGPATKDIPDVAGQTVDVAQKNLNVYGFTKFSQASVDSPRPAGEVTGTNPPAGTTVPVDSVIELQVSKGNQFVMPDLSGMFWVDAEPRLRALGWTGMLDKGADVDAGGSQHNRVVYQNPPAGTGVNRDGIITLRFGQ

Series 1
Target: HLA class I histocompatibility antigen, B alpha chain, allele B*51:01 (Homo sapiens, UniProt P01889)
Read-out: peptide-MHC binding
Molecule type: peptide
Endpoint: IC50
Molecule = IPCRDVVL; value = 67.7 nM
Molecule = FPQPQLPY; value = 20.4 nM
Molecule = QPQEQVPL; value = 41 nM

Single results of other studies
SMILES = O=S(=O)(CC1CS1)c1ccc(Oc2ccccc2)cc1 (racemic); test system = testosterone-induced animal model; conditions = dose not given; endpoint = activity in neurogenesis model; value = active
SMILES = Cn1c(N)nc2c3cccnc3ccc21; endpoint = log Kow; value = 1.47
SMILES = CN[C@H](CC(C)C)C(=O)N[C@H]1C(=O)N[C@@H](CC(N)=O)C(=O)N[C@H]2C(=O)N[C@H]3C(=O)N[C@H](C(=O)N[C@H](C(=O)O)c4cc(O)cc(O)c4-c4cc3ccc4O)[C@H](O)c3ccc(c(Cl)c3)Oc3cc2cc(c3O[C@@H]2O[C@H](CO)[C@@H](O)[C@H](O)[C@H]2O[C@H]2C[C@](C)(N)[C@H](O)[C@H](C)O2)Oc2ccc(cc2Cl)[C@H]1O; test system = human; conditions = oral; endpoint = oral bioavailability; value = < 1%
SMILES = Nc1cc(C(F)(F)F)c(-c2nc(N3CCOCC3)nc(N3CCOCC3)n2)cn1; target or system = Serine/threonine-protein kinase PknB (pknB, Mycobacterium tuberculosis, UniProt P9WI81); assay = enzyme activity; conditions = 10 µM; scale = relative to: untreated; endpoint = remaining activity; value = 100%
SMILES = Nc1cnn(-c2ccccc2)c(=O)c1Cl; endpoint = log Kow; value = 1.14

For quick reference, copied from above (series 1):
Molecule = QPQEQVPL; value = 41 nM
